Measured values from different studies.
Lines come from different studies, so protocols differ. Several values in a cell are separate wells, animals, samples, runs or records. ± marks the error that the study gave.

Compound | test system | setting | half-life
CC(C)c1nc(N(C)S(C)(=O)=O)nc(-c2ccc(F)cc2)c1/C=C/[C@@H](O)C[C@@H](O)CC(=O)O | Wistar albino rat, both sexes, plasma | oral, 20 mg/kg | 474 min
N=C(N)NCCNC(=O)C1(Nc2ccccc2)CCN(Cc2ccccc2)CC1 | female Sprague-Dawley rats, plasma | intravenous, 2.5 mg/kg | 54 ± 6 min
Cc1cccc(CNC(=O)c2cn(CCNC(=O)c3ccccc3S)c3cc4c(cc3c2=O)OC(F)(F)O4)n1 | Sprague-Dawley rat, male, plasma | intravenous, 5 mg/kg | 59.4 ± 16.8 min
CCc1cc(C(=O)NC)c2nccc(N3CCc4c(cc(Cn5ccnc5)cc4-c4cn(C)nc4C(F)(F)F)C3=O)c2c1 | Sprague Dawley rat, male, plasma | oral, 50 mg/kg once daily, 7 days, toxicokinetic satellite group | 192 min
O=C(O)c1cc(O)c(O)c(O)c1 | rat, plasma | oral, 500 mg/kg extract, extract | 151 ± 7.8 min
CC(C)[C@@H](CN1CC[C@@](C)(c2cccc(O)c2)[C@@H](C)C1)NC(=O)[C@H]1Cc2ccc(O)cc2CN1 | Sprague-Dawley rat, brain | intraperitoneal, 10 mg/kg | 3920 min
COC(=O)C1=CO[C@@H](O[C@@H]2O[C@H](CO)[C@@H](O)[C@H](O)[C@H]2O)[C@@H]2C(CO)=CC[C@H]12 | rat, plasma | oral, 500 mg/kg Eu + 217 mg/kg Pc extract, dosed as combined Eu and Pc extracts | 136 ± 83.4 min
O=C1C[C@@H](c2ccc(O)cc2)Oc2cc(O)cc(O)c21 | Sprague-Dawley rat, plasma | intravenous bolus, 1 mg/kg | 97.8 ± 28.2 min
CCn1ccc2c([C@](O)(c3cnc(C(F)(F)F)c(Cl)c3)C3CC3)n(C)nc2c1=O | Sprague-Dawley rat, male | intravenous, 1 mg/kg | 168 ± 16.8 min
Cc1cccc(CNC(=O)c2cn(CCNC(=O)c3ccccc3Sc3c([N+](=O)[O-])ncn3C)c3cc4c(cc3c2=O)OC(F)(F)O4)n1 | Sprague-Dawley rat, male, plasma | intravenous, 20 mg/kg of parent drug | 114 min
CCn1ccc2c([C@@](O)(CC)c3ccc(C(F)(F)F)nc3)n(C)nc2c1=O | Sprague-Dawley rat, male | intravenous, 1 mg/kg | 150 ± 46.2 min
Cc1cc(NC(=O)c2cccc(NC(=O)/C=C/CN(C)C)c2)ccc1Nc1nccc(-c2cccnc2)n1 | rat Wistar male, plasma | 1 µM | 374 min and 366 min
Cc1nc2cccc(OCC(C)(C)C(=O)NC(C)C)c2c(N)c1C(=O)O | Sprague-Dawley rat, male, plasma | oral, 30 mg/kg | 91.2 min
CSc1ccccc1C(=O)NCCn1cc(C(=O)NCc2cccc(C)n2)c(=O)c2cc3c(cc21)OC(F)(F)O3 | Sprague-Dawley rat, male, plasma | intravenous, 20 mg/kg of parent drug | 531 min

Repeated from above:
Compound | test system | setting | half-life
COC(=O)C1=CO[C@@H](O[C@@H]2O[C@H](CO)[C@@H](O)[C@H](O)[C@H]2O)[C@@H]2C(CO)=CC[C@H]12 | rat, plasma | oral, 500 mg/kg Eu + 217 mg/kg Pc extract, dosed as combined Eu and Pc extracts | 136 ± 83.4 min
CC(C)[C@@H](CN1CC[C@@](C)(c2cccc(O)c2)[C@@H](C)C1)NC(=O)[C@H]1Cc2ccc(O)cc2CN1 | Sprague-Dawley rat, brain | intraperitoneal, 10 mg/kg | 3920 min
